Results of several laboratories.
Lines come from different studies, so protocols differ. Several values in a cell are separate wells, animals, samples, runs or records. ± gives the spread as reported.
FFAR4: Free fatty acid receptor 4 (FFAR4, Homo sapiens, UniProt Q5NUL3)
TRPM8: Transient receptor potential cation channel subfamily M member 8 (TRPM8, Homo sapiens, UniProt Q7Z2W7)
GAP50: Glideosome-associated protein 50 (GAP50, Plasmodium falciparum, UniProt Q8I2X3)
NADH dehydrogenase [ubiquinone] iron-sulfur protein 7, mitochondrial/NADH dehydrogenase [ubiquinone] iron-sulfur protein 2, mitochondrial/MT-ND1: NADH dehydrogenase [ubiquinone] iron-sulfur protein 7, mitochondrial/NADH dehydrogenase [ubiquinone] iron-sulfur protein 2, mitochondrial/MT-ND1 (Homo sapiens, UniProt O75251+O75306+P03886)

Compound	target or system	test	system	conditions	how to read	endpoint	value
Cc1cc2c(c(=O)[nH]1)C(=O)O/C2=C\c1ccccc1OCC1CC1	Dual specificity calcium/calmodulin-dependent 3',5'-cyclic nucleotide phosphodiesterase 1C, isoform PDE1C2 (PDE1C, Homo sapiens, UniProt Q14123)	enzyme activity, inhibitor	–	with: 3H-cGMP substrate	–	binding free energy	-9.16 kcal/mol
C[C@@H](O)[C@@H](CO)NC(=O)[C@@H](CCCNC(=N)N)NC(=O)[C@@H]1CCCN1C(=O)[C@@H]1CSSC[C@H](NC(=O)[C@H](Cc2ccccc2)NC(=O)CN2CCN(CC(=O)O)CCN(CC(=O)O)CCN(CC(=O)O)CC2)C(=O)N[C@@H](Cc2ccc(O)cc2)C(=O)N[C@@H](Cc2ccccc2)C(=O)N[C@@H](CCC(N)=O)C(=O)N[C@@H](CC(N)=O)C(=O)N1 [gallium-68 labelled]	Vasopressin V1b receptor (AVPR1B, Homo sapiens, UniProt P47901)	receptor binding, radioimmunoassay	–	concentration not given, with: vasopressin V1b 125 nM	–	binding	28.7% and 32.4% and 31%
O=c1cc(N2CCC(c3ccccc3)CC2)[nH]c(=O)[nH]1	FFAR4	antagonist, β-arrestin recruitment	CHO cells	10 µM	–	inhibition	-12 ± 6%
O=C(COP(=O)(O)O)[C@@H](O)[C@H](O)[C@H](O)COP(=O)(O)O	Cleavage and polyadenylation specificity factor subunit 2 (Homo sapiens, UniProt Q9P2I0)	thermal proteome profiling, item: CPSF2	HepG2 cell lysate	concentration not given, 57 over 37 °C	reference: compound over control	thermal stability ratio	0.543 and 0.895 and 0.318
O=C1Cc2c([nH]c3ccc([N+](=O)[O-])cc23)-c2ccccc2N1	TRPM8	antagonist	HEK293	5 µM	reference: control	remaining activity	110 ± 15.2%
O=C(c1ccc(CNCCCN2CCN(c3ccc(F)cc3)CC2)cc1)c1ccc([N+](=O)[O-])cc1	Sigma intracellular receptor 2 (TMEM97, Homo sapiens, UniProt Q5BJF2)	radioligand binding	RT-4 cell membranes	–	reference: sigma1 over sigma2 receptor	selectivity ratio	70 fold
CC(=O)Nc1ccc(-c2noc(C[C@H]3CCCN(Cc4cccc(F)c4C)C3)n2)cc1	GAP50	binding, surface plasmon resonance	–	1:1 binding model	–	kon	16200 M⁻¹ s⁻¹
CCOc1nc2cccc(C(=O)O)c2n1Cc1ccc(-c2ccccc2-c2nnn[nH]2)cc1	Neutrophil gelatinase-associated lipocalin (LCN2, Homo sapiens, UniProt P80188, C107S)	NMR titration line-shape fit	–	induced fit model	–	koff	63 ± 1 s⁻¹
CC(C)(C)CNc1cc(=O)[nH]c(=O)[nH]1	FFAR4	β-arrestin recruitment	CHO	10 µM	reference: 30 µM TUG-891	agonist effect	1%
O=[N+]([O-])c1cc(C(F)(F)F)ccc1NCc1ccsc1	Endothelial PAS domain-containing protein 1, PAS-B domain (EPAS1, Homo sapiens, UniProt Q99814, N288A)	binding, ITC, reverse mode	–	–	–	ΔH	-7.31 ± 0.11 kcal/mol
Nc1nc2c(ncn2[C@@H]2O[C@H](COP(=O)(O)O)[C@@H](O)[C@H]2O)c(=O)[nH]1	GUK1 (Homo sapiens, UniProt Q16774)	enzyme activity, NADH-coupled	–	125 µM, with: NaCl 50 mM	–	reaction velocity	0.0663 µM/s and 0.0811 µM/s and 0.104 µM/s
COc1c(Nc2cc(C(F)(F)F)cc(C(F)(F)F)c2)c(=O)c1=O	CD209 antigen (CD209, Homo sapiens, UniProt Q9NNX6)	binding, grating-coupled interferometry	mannose-PEG3 chip	2 h, no Tris	–	Hill slope	1.8
N[C@@H](Cc1ccccc1)C(=O)O	Beta-1 adrenergic receptor (ADRB1, Homo sapiens, UniProt P08588)	–	HEK293 expressing β1AR	300 µM	–	cAMP level	18.3 pmol/mg protein and 18.9 pmol/mg protein and 22 pmol/mg protein and 29.3 pmol/mg protein and 17.3 pmol/mg protein and 17.2 pmol/mg protein
O=C(NC1CCC1)c1ccc2nc(-c3cccc(NS(=O)(=O)NCCN4CCCCC4)c3)cn2c1	Protein ENL (MLLT1, Homo sapiens, UniProt Q03111)	degrader, immunoblot, item: MLLT1	–	10 µM, 8 h	reference: DMSO control	protein level	5%
O=c1cc(NCCOc2ccccc2)[nH]c(=O)[nH]1	FFAR4	agonist, β-arrestin recruitment	CHO cells	10 µM	–	activation	0 ± 1%
CCCC[C@H](NC(=O)[C@H](C)c1c(C)[nH]c2ccc(O)cc12)c1ncc(-c2cc3ccccc3nc2OC)[nH]1	Alpha-1B adrenergic receptor (Adra1b, Rattus norvegicus, UniProt P15823)	–	rat	10 µM	–	effect	59%
Cc1[nH]c(N)nc1/C=C/C(=O)c1cc(F)cc(F)c1.Cl	Voltage-gated hydrogen channel 1, monomeric (HVCN1, Homo sapiens, UniProt Q96D96)	proton current, inhibitor, inside-out patch clamp	–	–	–	Hill coefficient	1.41 ± 0.06
O=C(Nc1ccc2ccccc2n1)Nc1cccs1	3-oxoacyl-[acyl-carrier-protein] reductase FabG (fabG, Pseudomonas aeruginosa, UniProt O54438)	enzyme activity, inhibitor, NADPH fluorescence	–	reverse reaction, with: 3-OH-decanoyl-NAC, NADP	–	Hill slope	1.2
CC[C@@H](C)[C@@H](NC(=O)[C@@H](Cc1ccc(O)cc1)NC(=O)[C@H]1CCCN1C(=O)[C@@H](CCCNC(=N)N)NC(=O)[C@H](N)Cc1c[nH]cn1)C(=O)N[C@H](C)C(=O)N[C@H](Cc1c[nH]cn1)C(=O)N[C@H](CCCNC(=N)N)C(=O)N[C@@H](C(=O)N[C@H](Cc1ccc(O)cc1)C(=O)N[C@H](CO)C(=O)N[C@H](Cc1ccccc1)C(N)=O)C(C)C	Transferrin receptor protein 1 (Tfrc, Mus musculus, UniProt Q62351)	flow cytometry	DC2.4	6 h, pH 7.4, unit not given	reference: 0 h	surface TFRC expression	0.846
CC(C)C[C@H](NC(=O)C[C@H](O)[C@H](CC(C)C)NC(=O)[C@H](Cc1c[nH]cn1)NC(=O)CNC(=O)[C@@H](NC(=O)[C@H](C)NC(=O)[C@H](Cc1c[nH]c2ccccc12)NC(=O)[C@H](CCC(N)=O)NC(=O)[C@@H](Cc1ccccc1)NC(=O)COCCOCCNC(=O)CCC(C(=O)O)N1CCN(CC(=O)O)CCN(CC(=O)O)CCN(CC(=O)O)CC1)C(C)C)C(N)=O (stereo partly drawn) [lutetium-177 labelled]	–	–	female BALB/c nu/nu mice, liver	intravenous, 100 pmol, 24 h, with: PA 300 µg	–	tissue uptake	0.05 ± 0.01 %ID/g
O=c1cc(NCCc2ccc(Br)cc2)[nH]c(=O)[nH]1	FFAR4	agonist, β-arrestin recruitment	CHO cells	10 µM	reference: 30 µM TUG-891	agonist effect	0 ± 1%
CC[C@@H]1[C@H](F)C(=O)N[C@@H]1COc1nccc2cc(C(N)=O)c(OC)cc12	Microtubule-associated serine/threonine-protein kinase 3 (MAST3, Homo sapiens, UniProt O60307)	ATP-site probe binding, ActivX profiling	THP-1 cell lysate	0.2 mM, Lys2 site	–	inhibition	2.6%
COc1ccccc1C(=O)NCc1ccc(CNS(=O)(=O)c2ccccc2)cc1	C-X-C chemokine receptor type 4 (CXCR4, Homo sapiens, UniProt P61073)	binding, inhibitor, competitive binding	MDA-MB-231	with: biotinylated TN14003	–	EC	1 nM

Compound	target or system	test	system	conditions	how to read	endpoint	value
NC(=O)NOCCCCCCCCCCCC[P+](c1ccccc1)(c1ccccc1)c1ccccc1.O=C([O-])C(F)(F)F	NADH dehydrogenase [ubiquinone] iron-sulfur protein 7, mitochondrial/NADH dehydrogenase [ubiquinone] iron-sulfur protein 2, mitochondrial/MT-ND1	complex I-dependent respiration, Seahorse XF96	HCT-116	2.5 µM, 24 h	reference: control	oxygen consumption rate	33.9 ± 11.3%
N[C@@H](CCCCB(O)O)C(=O)O	Arginase (Schistosoma mansoni, UniProt Q6WVP6)	isothermal titration calorimetry	–	concentration not given	–	binding enthalpy	-11.4 ± 0.3 kcal/mol
CC1=C(/C=C/C(C)=C/C=C/C(C)=C/C=O)C(C)(C)CCC1	Rhodopsin (RHO, Bos taurus, UniProt P02699, G270L)	retinal entry, Trp FRET	lipid bicelles	28 °C, G270L mutant	reference: wild-type rhodopsin	relative kon	1.09 ± 0.05
Cc1ccc(C(=O)Nc2ccc(S(=O)(=O)O)c3cc(S(=O)(=O)O)cc(S(=O)(=O)O)c23)cc1NC(=O)c1cccc(NC(=O)Nc2cccc(C(=O)Nc3cc(C(=O)Nc4ccc(S(=O)(=O)O)c5cc(S(=O)(=O)O)cc(S(=O)(=O)O)c45)ccc3C)c2)c1	GAP50	binding, surface plasmon resonance	–	1:1 binding model	–	koff	0.0289 s⁻¹
NCc1ccc(Br)cc1	Amine oxidase [flavin-containing] A (Maoa, Rattus norvegicus, UniProt P21396)	–	–	pKa-corrected	–	log Kd	-6.1 M
COc1cc2nccc(Oc3ccc(NC(=S)NC(=O)c4ccccc4C)cc3)c2cc1OC	TRPM8	antagonist	HEK293	5 µM	reference: control	remaining activity	110 ± 5.96%
O=c1nc(SCc2cc(F)cc(C(F)(F)F)c2)nc(SCc2ccc3nc(OCCN4CCOCC4)ccc3c2)[nH]1	DNA topoisomerase 2-alpha (TOP2A, Homo sapiens, UniProt P11388)	DNA cleavage	–	31.25 µM	–	mean linear DNA	0%
OC[C@H]1OC(O)[C@H](O)[C@@H](O)[C@@H]1O (stereo partly drawn)	Hexokinase-3 (HK3, Homo sapiens, UniProt P52790, N221A)	–	–	concentration not given	reference: wild type	substrate inhibition fold reduction	30 fold
C[S+](CC[C@H](N)C(=O)[O-])C[C@H]1O[C@@H](n2cnc3c(N)ncnc32)[C@H](O)[C@@H]1O (stereo partly drawn)	Histone-lysine N-methyltransferase 2C (KMT2C, Homo sapiens, UniProt Q8NEZ4)	substrate, enzyme-coupled methylation	–	with: H3 peptide 1600 µM	–	apparent Vmax	5 ± 0.4 µM/min
CO[C@@H](C(=O)N1Cc2c(-c3ccc(C(=O)N4CCCc5ccccc54)cc3)cnn2C[C@H]1C(C)C)c1cnn(C)c1 (single isomer, unassigned)	E3 ubiquitin-protein ligase parkin (PRKN, Human, UniProt O60260)	nanoDSF	–	200 µM	reference: DMSO	ΔTm	-1.7 °C
O=C(O)C1CCCNC1 (stereo not drawn)	Sodium- and chloride-dependent taurine transporter (SLC6A6, Homo sapiens, UniProt P31641, G62A)	binding, microscale thermophoresis	–	62.5 µM, room temperature, with: 50 nM labelled protein	higher = more binding	normalised MST signal	0.0193
Cc1cnc(CCNC(=O)c2cc(-c3ccc(Cl)cc3)cs2)[nH]1	GAP50	binding, surface plasmon resonance	–	1:1 binding model	–	koff	0.723 s⁻¹
N#Cc1ccc2c(c1)[C@H]1CCCN(C(=O)c3ccc4[nH]cnc4c3)[C@H]1C2	–	–	human males	80 mg, day 7	–	total testosterone level	14.1 nmol/L
CNC(=O)[C@@H]1Cc2c([nH]c3cc(Cl)ccc23)C2(CCN(CCc3ccccc3)CC2)N1	GAP50	binding, surface plasmon resonance	–	1:1 binding model	–	kon	6220 M⁻¹ s⁻¹
CCc1cc(NC(=O)COc2cc(Cl)ccc2Cl)n(C2CCC(F)(F)CC2)n1	Kir3.1/Kir3.2 (Homo sapiens, UniProt P48051+P48549)	thallium flux, activator	HEK293	–	reference: standard compound	Emax	84%
C=CC(=O)N1CCC(COCC(=O)N2CCN(c3nc(-c4cnc(N)nc4C(F)F)nc(N4CCOC[C@@H]4C)n3)CC2)CC1	Receptor-type tyrosine-protein kinase FLT3 (FLT3, Homo sapiens, UniProt P36888)	KINOMEscan	–	1 µM	–	remaining binding	86%
O=[N+]([O-])c1cc2c3ccccc3ccc2c2ccccc12	Aryl hydrocarbon receptor (Ahr, Rattus norvegicus, UniProt P41738)	immunohistochemistry H-score	Sprague-Dawley rats, mammary tissue	oral gavage, dose not given, 24 h	reference: vehicle	protein level	decreased
NC(=O)NOCCCCCCCCCCCCCCCC[P+](c1ccccc1)(c1ccccc1)c1ccccc1.O=C([O-])C(F)(F)F	NADH dehydrogenase [ubiquinone] iron-sulfur protein 7, mitochondrial/NADH dehydrogenase [ubiquinone] iron-sulfur protein 2, mitochondrial/MT-ND1	complex I-dependent respiration, Seahorse XF96	HCT-116	3 µM, 24 h	reference: control	oxygen consumption rate	15.8 ± 4.12%
C[C@@H](c1ccc(-n2cnc3c(N)ncnc32)cc1)N1CCc2nn(C)c(Cc3ccccc3)c2C1=O	Mitogen-activated protein kinase kinase kinase 12 (MAP3K12, Homo sapiens, UniProt Q12852)	KINOMEscan	–	0.1 µM	reference: DMSO control	remaining binding	82%
Cn1cc(-c2ccc(-c3cncc(Cl)c3N3CCC4(CCNC4=O)CC3)cc2)cn1	COLO 205	gene expression, microarray, item: OXTR mRNA	–	concentration not given, 2 h	reference: untreated cells	log2 fold change	-2.5
NCc1ccc(C(F)(F)F)cc1	Amine oxidase [flavin-containing] A (MAOA, Homo sapiens, UniProt P21397)	substrate	–	pH 9.0, α,α-protio substrate	–	kcat	4.72 ± 0.095 s⁻¹
NC(=O)NOCCCCCCCCCC[P+](c1ccccc1)(c1ccccc1)c1ccccc1.O=C([O-])C(F)(F)F	NADH dehydrogenase [ubiquinone] iron-sulfur protein 7, mitochondrial/NADH dehydrogenase [ubiquinone] iron-sulfur protein 2, mitochondrial/MT-ND1	complex I-dependent respiration, Seahorse XF96	HCT-116	20 µM, 24 h	reference: control	oxygen consumption rate	5.51 ± 10.1%

Some of these lines once more:
Compound	target or system	test	system	conditions	how to read	endpoint	value
CCOc1nc2cccc(C(=O)O)c2n1Cc1ccc(-c2ccccc2-c2nnn[nH]2)cc1	Neutrophil gelatinase-associated lipocalin (LCN2, Homo sapiens, UniProt P80188, C107S)	NMR titration line-shape fit	–	induced fit model	–	koff	63 ± 1 s⁻¹
OC[C@H]1OC(O)[C@H](O)[C@@H](O)[C@@H]1O (stereo partly drawn)	Hexokinase-3 (HK3, Homo sapiens, UniProt P52790, N221A)	–	–	concentration not given	reference: wild type	substrate inhibition fold reduction	30 fold
